Measured values pooled from the literature.
Each line is one published result; not all experiments were run side by side. ± marks the error that the study gave.
OPRM1: Mu-type opioid receptor (OPRM1, Homo sapiens, UniProt P35372)
Chain of UniProt P35372 (whole entry, looked up): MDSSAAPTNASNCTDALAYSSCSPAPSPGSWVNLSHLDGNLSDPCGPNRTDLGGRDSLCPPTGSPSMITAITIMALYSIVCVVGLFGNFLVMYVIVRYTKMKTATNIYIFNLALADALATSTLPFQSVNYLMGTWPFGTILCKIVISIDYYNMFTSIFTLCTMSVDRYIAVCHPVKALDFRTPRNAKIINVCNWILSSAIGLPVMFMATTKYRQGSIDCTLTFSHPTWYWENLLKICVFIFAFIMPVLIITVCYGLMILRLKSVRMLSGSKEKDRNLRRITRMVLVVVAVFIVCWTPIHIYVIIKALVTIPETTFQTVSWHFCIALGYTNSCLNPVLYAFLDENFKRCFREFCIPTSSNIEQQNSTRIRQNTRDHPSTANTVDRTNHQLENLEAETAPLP
ESR2: Estrogen receptor beta (ESR2, Homo sapiens, UniProt Q92731)
Chain of UniProt Q92731 (whole entry, looked up): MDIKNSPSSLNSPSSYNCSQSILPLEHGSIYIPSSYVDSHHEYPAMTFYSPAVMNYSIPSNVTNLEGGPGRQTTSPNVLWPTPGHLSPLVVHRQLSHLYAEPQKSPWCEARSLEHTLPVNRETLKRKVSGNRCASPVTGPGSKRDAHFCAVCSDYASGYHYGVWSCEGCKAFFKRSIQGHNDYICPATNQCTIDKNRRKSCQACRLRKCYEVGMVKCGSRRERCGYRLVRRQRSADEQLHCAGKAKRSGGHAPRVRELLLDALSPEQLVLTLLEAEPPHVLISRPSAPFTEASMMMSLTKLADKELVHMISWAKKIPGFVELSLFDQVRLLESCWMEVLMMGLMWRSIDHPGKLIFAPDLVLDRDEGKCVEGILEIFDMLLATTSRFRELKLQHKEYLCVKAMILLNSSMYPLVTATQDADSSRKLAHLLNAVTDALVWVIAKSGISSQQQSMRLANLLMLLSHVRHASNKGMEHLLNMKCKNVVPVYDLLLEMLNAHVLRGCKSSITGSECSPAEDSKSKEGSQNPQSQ
ESR1: Estrogen receptor (ESR1, Homo sapiens, UniProt P03372)
Chain of UniProt P03372 (whole entry, looked up): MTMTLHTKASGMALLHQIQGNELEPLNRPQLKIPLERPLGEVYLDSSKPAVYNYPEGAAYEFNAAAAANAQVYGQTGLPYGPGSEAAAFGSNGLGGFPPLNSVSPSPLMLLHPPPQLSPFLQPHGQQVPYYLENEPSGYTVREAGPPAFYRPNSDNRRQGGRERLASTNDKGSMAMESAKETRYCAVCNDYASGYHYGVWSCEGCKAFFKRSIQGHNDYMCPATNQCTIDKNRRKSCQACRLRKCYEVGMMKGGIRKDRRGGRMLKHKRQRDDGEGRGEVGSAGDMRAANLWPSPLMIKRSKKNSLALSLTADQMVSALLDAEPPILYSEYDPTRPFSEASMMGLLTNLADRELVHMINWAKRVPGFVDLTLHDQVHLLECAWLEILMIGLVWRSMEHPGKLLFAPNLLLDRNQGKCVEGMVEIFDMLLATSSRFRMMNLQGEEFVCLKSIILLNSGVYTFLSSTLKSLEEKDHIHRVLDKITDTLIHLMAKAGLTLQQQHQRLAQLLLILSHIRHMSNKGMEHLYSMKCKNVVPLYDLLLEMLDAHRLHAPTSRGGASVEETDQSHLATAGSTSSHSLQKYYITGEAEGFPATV
T1: DNA aptamer, 5' T15 spacer; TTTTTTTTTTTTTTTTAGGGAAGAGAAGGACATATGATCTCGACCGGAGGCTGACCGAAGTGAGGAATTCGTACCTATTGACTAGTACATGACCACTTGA
T2: pre-miR-21 RNA (Homo sapiens); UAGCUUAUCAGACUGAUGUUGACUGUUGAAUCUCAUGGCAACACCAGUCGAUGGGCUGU
Chain of UniProt P10415 (whole entry, looked up): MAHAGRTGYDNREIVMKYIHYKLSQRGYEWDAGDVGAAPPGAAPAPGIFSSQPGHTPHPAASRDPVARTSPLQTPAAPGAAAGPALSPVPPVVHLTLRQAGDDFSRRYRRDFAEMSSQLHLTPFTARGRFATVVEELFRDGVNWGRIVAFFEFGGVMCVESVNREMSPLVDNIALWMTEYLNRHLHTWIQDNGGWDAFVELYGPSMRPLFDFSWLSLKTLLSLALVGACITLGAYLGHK
Chain of UniProt P0DMS8 (whole entry, looked up): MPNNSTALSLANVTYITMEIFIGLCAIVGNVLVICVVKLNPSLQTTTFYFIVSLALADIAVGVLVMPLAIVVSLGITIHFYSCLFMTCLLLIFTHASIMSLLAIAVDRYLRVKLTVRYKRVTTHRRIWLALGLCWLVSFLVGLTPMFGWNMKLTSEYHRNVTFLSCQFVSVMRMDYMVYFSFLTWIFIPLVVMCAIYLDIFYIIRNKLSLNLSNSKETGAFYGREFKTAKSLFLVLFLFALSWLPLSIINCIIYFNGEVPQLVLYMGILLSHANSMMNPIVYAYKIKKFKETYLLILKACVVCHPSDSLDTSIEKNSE
Chain of UniProt Q00194 (whole entry, looked up): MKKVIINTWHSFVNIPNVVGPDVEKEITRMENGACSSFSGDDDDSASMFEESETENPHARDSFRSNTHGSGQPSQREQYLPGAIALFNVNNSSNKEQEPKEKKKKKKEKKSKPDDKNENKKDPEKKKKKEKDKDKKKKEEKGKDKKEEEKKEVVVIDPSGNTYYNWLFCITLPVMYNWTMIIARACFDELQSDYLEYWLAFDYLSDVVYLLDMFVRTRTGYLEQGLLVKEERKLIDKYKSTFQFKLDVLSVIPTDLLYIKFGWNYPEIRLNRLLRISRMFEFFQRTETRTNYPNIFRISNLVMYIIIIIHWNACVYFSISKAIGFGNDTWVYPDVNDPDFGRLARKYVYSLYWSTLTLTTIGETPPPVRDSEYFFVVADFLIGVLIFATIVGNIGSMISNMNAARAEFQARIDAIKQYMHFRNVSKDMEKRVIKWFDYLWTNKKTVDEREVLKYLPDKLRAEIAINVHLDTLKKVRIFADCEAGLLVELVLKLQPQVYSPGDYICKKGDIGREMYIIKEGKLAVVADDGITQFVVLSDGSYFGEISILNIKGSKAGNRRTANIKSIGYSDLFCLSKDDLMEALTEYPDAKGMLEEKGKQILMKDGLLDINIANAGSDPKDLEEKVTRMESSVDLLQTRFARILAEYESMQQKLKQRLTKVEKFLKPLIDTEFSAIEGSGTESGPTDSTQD
Chain of UniProt Q29437 (whole entry, looked up): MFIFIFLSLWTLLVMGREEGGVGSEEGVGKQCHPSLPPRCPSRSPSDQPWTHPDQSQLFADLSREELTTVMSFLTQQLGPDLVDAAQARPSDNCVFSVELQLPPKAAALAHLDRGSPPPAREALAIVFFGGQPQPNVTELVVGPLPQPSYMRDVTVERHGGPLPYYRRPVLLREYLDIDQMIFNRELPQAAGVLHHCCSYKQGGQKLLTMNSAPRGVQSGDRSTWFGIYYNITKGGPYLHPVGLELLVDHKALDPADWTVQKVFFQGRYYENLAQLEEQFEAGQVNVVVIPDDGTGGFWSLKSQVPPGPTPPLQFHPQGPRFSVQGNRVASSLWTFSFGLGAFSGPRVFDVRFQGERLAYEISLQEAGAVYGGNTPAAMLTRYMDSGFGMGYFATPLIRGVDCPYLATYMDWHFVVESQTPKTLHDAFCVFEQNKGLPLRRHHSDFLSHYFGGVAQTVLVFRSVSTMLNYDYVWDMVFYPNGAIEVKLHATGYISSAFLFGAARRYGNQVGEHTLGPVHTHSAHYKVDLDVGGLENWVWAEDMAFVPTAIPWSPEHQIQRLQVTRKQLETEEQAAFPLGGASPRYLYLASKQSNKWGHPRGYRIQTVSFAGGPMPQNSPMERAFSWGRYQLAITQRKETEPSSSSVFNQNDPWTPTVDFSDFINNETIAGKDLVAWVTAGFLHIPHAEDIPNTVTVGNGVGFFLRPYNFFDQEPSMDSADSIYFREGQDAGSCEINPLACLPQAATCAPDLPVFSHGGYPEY
Chain of UniProt P41968 (whole entry, looked up): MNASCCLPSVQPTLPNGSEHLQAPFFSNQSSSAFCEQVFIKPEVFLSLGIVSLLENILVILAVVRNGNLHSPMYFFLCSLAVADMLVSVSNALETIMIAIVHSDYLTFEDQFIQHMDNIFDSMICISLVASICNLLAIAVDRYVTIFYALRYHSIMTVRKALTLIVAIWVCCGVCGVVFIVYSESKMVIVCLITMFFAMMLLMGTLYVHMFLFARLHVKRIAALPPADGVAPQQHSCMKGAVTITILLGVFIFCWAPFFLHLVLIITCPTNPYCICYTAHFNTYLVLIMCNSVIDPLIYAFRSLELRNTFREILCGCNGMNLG
Chain of UniProt Q13546 (whole entry, looked up): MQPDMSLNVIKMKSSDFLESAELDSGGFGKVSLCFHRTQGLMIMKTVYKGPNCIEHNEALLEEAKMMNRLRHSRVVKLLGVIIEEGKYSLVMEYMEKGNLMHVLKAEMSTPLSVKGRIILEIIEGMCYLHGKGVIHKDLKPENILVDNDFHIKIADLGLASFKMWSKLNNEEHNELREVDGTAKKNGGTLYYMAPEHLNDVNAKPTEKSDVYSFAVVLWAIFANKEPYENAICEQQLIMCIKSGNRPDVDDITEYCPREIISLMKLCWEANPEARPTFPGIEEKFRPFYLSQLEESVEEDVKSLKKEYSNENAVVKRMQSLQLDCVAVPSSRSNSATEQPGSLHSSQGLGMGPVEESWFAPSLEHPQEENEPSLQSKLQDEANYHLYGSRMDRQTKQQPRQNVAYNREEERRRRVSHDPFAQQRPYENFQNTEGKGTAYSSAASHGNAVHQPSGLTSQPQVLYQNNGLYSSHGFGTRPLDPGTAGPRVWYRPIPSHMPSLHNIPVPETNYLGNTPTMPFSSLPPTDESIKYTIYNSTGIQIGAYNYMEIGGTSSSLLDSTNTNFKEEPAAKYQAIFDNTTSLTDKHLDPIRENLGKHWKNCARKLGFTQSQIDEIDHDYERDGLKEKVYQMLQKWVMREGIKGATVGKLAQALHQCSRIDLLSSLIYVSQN
Chain of UniProt Q12908 (whole entry, looked up): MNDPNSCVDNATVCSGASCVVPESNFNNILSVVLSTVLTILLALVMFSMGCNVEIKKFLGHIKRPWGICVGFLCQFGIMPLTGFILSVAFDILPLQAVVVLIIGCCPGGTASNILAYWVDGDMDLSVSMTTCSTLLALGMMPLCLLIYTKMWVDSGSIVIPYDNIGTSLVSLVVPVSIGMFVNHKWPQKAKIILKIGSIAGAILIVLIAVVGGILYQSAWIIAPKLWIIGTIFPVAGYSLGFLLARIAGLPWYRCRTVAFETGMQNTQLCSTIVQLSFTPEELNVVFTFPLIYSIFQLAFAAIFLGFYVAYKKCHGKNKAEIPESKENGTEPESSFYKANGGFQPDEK

| SMILES | target | assay | system | setting | how to read | quantity | value |
| --- | --- | --- | --- | --- | --- | --- | --- |
| CC(=O)C12NC(C)(C)CC1(C)C(=O)C1=C2c2c(c3c4n2C(C)(C)CC2=C4C4(CC(C)(C)NC(C)(C4)C2=O)CC3(C)C)C(=O)C(C)(C)N1 (single isomer, unassigned; (+)) | OPRM1 | cAMP level, agonist, LANCE Ultra cAMP | CHO cells | concentration not given | – | activity | inactive |
| COc1ccc(C(/C=C\CN2CCCC(C(=O)O)C2)(c2ccc(OC)cc2)c2ccc(OC)cc2)cc1 (stereo not shown) | Sodium- and chloride-dependent glycine transporter 1, isoform GlyT1c (SLC6A9, Homo sapiens, UniProt P48067) | inhibitor, MS binding competition | – | 1.0 µM, pH 7.5, 22 °C, compound mixture deconvolution, added: Org24598 15 nM | – | remaining specific binding | 42.1 ± 3.1% |
| O=C(NCc1ccsc1)N1CCN(C(Cc2cccc(O)c2)c2ccccc2)CC1 (stereo not shown) | OPRM1 | cAMP, agonist | CHO-K1 | – | baseline: DAMGO | Emax | 104% |
| CCc1c(-c2ccc(O)cc2)nn(-c2ccc(O)cc2)c1-c1ccc(OCCN2CCCCC2)cc1 | ESR2 | competitive radioligand binding | – | concentration not given | baseline: estradiol, higher = stronger binding | relative binding affinity | 0.49 ± 0.13 |
| C#CCCCC[C@H](C)C[C@@H](C)C(=O)N(C)[C@H](C(=O)N(C)[C@@H](Cc1ccccc1)C(=O)N1CCC[C@H]1C(=O)N1CCC[C@H]1C(C)=O)C(C)C | BCL2 (Homo sapiens, UniProt P10415) | cellular thermal shift | DU-145 | – | highest temperature with stabilization | stabilization temperature limit | ≤ 46 °C |
| Cn1c(=O)c2[nH]c(SCCc3ccccc3)nc2n(C)c1=O | ESR1 | reporter gene, ERE luciferase | T47D-KBluc | 10 µM, 24 h, added: estradiol 5 nM | baseline: maximal luciferase activity | reporter activity | 87% |
| CCC(=C(c1ccc(O)cc1)c1ccc(OCCN(C)CCOCCOCCOCCOCCOCCOCCOCCOCCOCCOCCOCCN(C)CCOc2ccc(C(=C(CC)c3ccccc3)c3ccc(O)cc3)cc2)cc1)c1ccccc1 (mixture of isomers) | ESR2 | radioligand competition binding | – | concentration not given, Z-E/E isomer form, added: [3H]estradiol tracer | baseline: estradiol | relative binding affinity | 7.6 ± 2.2% |
| CCC(=O)N1CCC=C(c2cc3c(Nc4cc5ncsc5cc4F)ncnc3s2)C1 | RIPK1 (Homo sapiens, UniProt Q13546) | enzyme activity | – | 1 µM | baseline: untreated | remaining activity | 99 ± 1% |
| CCCn1c(=O)c2[nH]c(-c3ccc(OCC(=O)NCCNC(=O)CCCCCNS(=O)(=O)c4ccc(C5=c6cc7c8c(c6Oc6c5cc5c9c6CCCN9CCC5)CCC[N+]=8CCC7)c(S(=O)(=O)[O-])c4)cc3)nc2n(CCC)c1=O | ADORA1 (Homo sapiens, UniProt P30542) | CRE reporter gene, inverse agonist | CHO-A1 | concentration not given, added: forskolin | baseline: forskolin alone | inverse agonist response | 1.26 ± 0.06 fold increase |
| C=C1C(=O)O[C@@H]2[C@H]3C(CO)=CC(=O)C3=C(C)C[C@H](OC(=O)Cc3ccc(O)cc3)[C@@H]12 | MAL12 (Saccharomyces cerevisiae S288c, UniProt P53341) | fluorescence quenching | – | 310 K | – | binding free energy | -5.5 kcal/mol |
| CC1(C)C=Cc2c(cc(O)c3c(=O)cc(-c4ccc(O)cc4O)oc23)O1 | PTPN1 (Homo sapiens, UniProt P18031) | fluorescence quenching | – | concentration not given | – | binding site number | 1.17 |
| C[C@]12CC[C@@H]3c4ccc(O)cc4C(=NOCC(=O)O)C[C@H]3[C@@H]1CC[C@@H]2O | T1, DNA aptamer, 5' T15 spacer | plate-ELAA | – | NaCl 100 mM | – | Kd | 0.95 nM |
| CCCCCCOc1ccc(C(=O)OCCN2CC=CCC2)cc1 | CHRM5 (Homo sapiens, UniProt P08912) | antagonist, refers to: inositol phosphates | CHO | M5, added: carbachol | – | cooperativity factor | 0.0008 ± 0.0003 |
| CNc1nc(C#Cc2ccc(Cl)s2)nc2c1ncn2[C@@H]1O[C@H](CO)[C@@H](O)[C@H]1O | ADORA3 (Homo sapiens, UniProt P0DMS8) | kinetic radioligand binding | – | no GTP, added: [3H]PSB-11 | – | residence time | 125 ± 14 min |
| Cc1c(C)c(C)[c-](C)c1C.[C-]#[O+].[C-]#[O+].[C-]#[O+].[Cl-].[Cl-].[Cl-].[Ir+3].[Re+].c1cnc(-c2ncccn2)nc1 | Albumin (ALB, Homo sapiens, UniProt P02768) | tryptophan fluorescence quenching | – | – | – | quenching rate constant | 1.6e+12 M⁻¹ s⁻¹ |
| O=C1c2ccc(O)cc2OC2c3cc(-c4coc5cc(O)ccc5c4=O)ccc3OC12c1ccc(O)cc1 (stereo not shown) | PRXC1A (Armoracia rusticana, UniProt P00433) | oxidation, substrate | – | – | – | Km | 775 ± 21 µM |
| CC(CCC(=O)NC(CCC(=O)Nc1cccc(N)n1)C(=O)O)C1CCC2C3C(O)CC4CC(O)CCC4(C)C3CCC12C (stereo not shown) | SLC10A2 (Homo sapiens, UniProt Q12908) | transport efficiency, substrate, LC-MS/MS | ASBT-MDCK | – | – | normalized Jmax/Kt | 0.324 µM⁻¹ |
| Cc1ccc(O)c(C(=O)Nc2ccc(CN)cc2)c1 | human TMPRSS2 and HAT | jump dilution | – | concentration not given, 15 min preincubation, 1/100 dilution | – | activity recovered after dilution | > 80% |
| C[N+](C)(C)CCCCOc1ccc2cc(CN)ccc2c1 | Primary amine oxidase, liver isozyme (Bos taurus, UniProt Q29437) | substrate, fluorescence | – | pH 7.2, 30 °C | – | Km | 0.064 ± 0.015 µM |
| CN1CCN(c2ccc(-c3ccc4[nH]c(-c5ccc(OCCCC(=O)NCCCN=[N+]=[N-])cc5)nc4c3)cc2)CC1 | T2, pre-miR-21 RNA (Homo sapiens) | RNase L cleavage, competitor, RNase L cleavage assay | – | added: RIBOTAC TGP-21-C1-3 | – | IC50 | > 50000 nM |
| CC1=C(/C=C/C(C)=C/C=C/C(C)=C/C=O)C(C)(C)CCC1 | CNGA1 (Bos taurus, UniProt Q00194) | channel binding, allosteric model fit | – | closed unliganded channel | – | association constant K1 | 9e+10 M^-n |
| CCC(=C(c1ccc(Cl)cc1)c1ccc(OCCN2CCCC2)cc1)c1ccc(Cl)cc1 | ESR1 | reporter gene, agonist, yeast estrogen screen | – | 1 µM | baseline: DMSO | fold activation | 1.16 ± 0.09 fold |
| O=C(c1cc2c(s1)CCCCC2)N1CCC(n2c(=O)[nH]c3ccccc32)CC1 | Trpc6 (Mus musculus, UniProt Q61143) | ion current, agonist, whole-cell patch clamp | – | wild type | baseline: 3 µM over 1 µM | current ratio | 1.87 ± 0.22 |
| Cc1cc(=O)oc2cc(NC(=O)CCCCCCC(=O)NO)ccc12 | HDAC8 (Homo sapiens, UniProt Q9BY41) | temperature-dependent ITC | – | – | – | temperature where ΔG equals ΔH | 329 K |
| C=CCCCCCCO[C@@H]1O[C@H](CO)[C@@H](O)[C@H](O[C@@H]2O[C@H](CO)[C@H](O)[C@H](O)[C@H]2O[C@@H]2O[C@@H](C)[C@@H](O)[C@@H](O)[C@@H]2O)[C@H]1NC(C)=O | ABO (Homo sapiens, UniProt P16442, G235S/G268A/L266M/R176G) | methyl-TROSY NMR titration lineshape analysis | – | apo enzyme | – | koff | 1600 ± 200 s⁻¹ |
| COC(=O)C1=Cc2ccccc2S1(=O)=O | STAT3 (Homo sapiens, UniProt P40763) | inhibitor, immunoblotting | HepG2 | up to 20 µM, added: IL6 | – | IL6-induced phosphorylation | no inhibition |
| N=C(N)NCCC[C@H](NC(=O)[C@H](CC(=O)O)NC(=O)[C@@H]1CSCCC(=O)NCC(=O)N[C@@H](Cc2c[nH]cn2)C(=O)N[C@H](Cc2ccccc2)C(=O)N[C@@H](CCCNC(=N)N)C(=O)N[C@H](Cc2c[nH]c3ccccc23)C(=O)N1)C(=O)N[C@@H](Cc1ccccc1)C(=O)NCC(N)=O | MC3R (Homo sapiens, UniProt P41968) | cAMP accumulation, agonist | HEK293 expressing MC3R | 10 µM | baseline: MT-II | activation | 50% |
| CC(Cc1ccc(Cl)cc1)=C(c1ccc(Cl)cc1)c1ccc(OCCN2CCCC2)cc1 | ESR1 | reporter gene, agonist, yeast estrogen screen | – | 1 µM | baseline: DMSO | fold activation | 1.05 ± 0.11 fold |

For quick reference, copied from above:
| SMILES | target | assay | system | setting | how to read | quantity | value |
| --- | --- | --- | --- | --- | --- | --- | --- |
| COc1ccc(C(/C=C\CN2CCCC(C(=O)O)C2)(c2ccc(OC)cc2)c2ccc(OC)cc2)cc1 (stereo not shown) | Sodium- and chloride-dependent glycine transporter 1, isoform GlyT1c (SLC6A9, Homo sapiens, UniProt P48067) | inhibitor, MS binding competition | – | 1.0 µM, pH 7.5, 22 °C, compound mixture deconvolution, added: Org24598 15 nM | – | remaining specific binding | 42.1 ± 3.1% |
| CNc1nc(C#Cc2ccc(Cl)s2)nc2c1ncn2[C@@H]1O[C@H](CO)[C@@H](O)[C@H]1O | ADORA3 (Homo sapiens, UniProt P0DMS8) | kinetic radioligand binding | – | no GTP, added: [3H]PSB-11 | – | residence time | 125 ± 14 min |
| C[N+](C)(C)CCCCOc1ccc2cc(CN)ccc2c1 | Primary amine oxidase, liver isozyme (Bos taurus, UniProt Q29437) | substrate, fluorescence | – | pH 7.2, 30 °C | – | Km | 0.064 ± 0.015 µM |
